Assay results gathered from unrelated publications.
Numbered parts are unrelated; each lists some results of a single study.
Sequence of UniProt P41143 (whole entry, looked up): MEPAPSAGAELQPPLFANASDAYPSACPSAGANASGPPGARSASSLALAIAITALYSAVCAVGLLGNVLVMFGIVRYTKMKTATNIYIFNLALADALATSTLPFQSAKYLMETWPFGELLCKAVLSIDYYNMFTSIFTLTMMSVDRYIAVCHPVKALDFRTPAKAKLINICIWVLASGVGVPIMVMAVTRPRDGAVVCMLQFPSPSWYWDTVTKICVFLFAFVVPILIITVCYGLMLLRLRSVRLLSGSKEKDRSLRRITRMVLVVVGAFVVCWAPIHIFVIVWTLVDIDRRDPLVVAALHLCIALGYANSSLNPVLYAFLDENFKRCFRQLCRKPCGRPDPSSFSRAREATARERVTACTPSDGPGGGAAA
Sequence of UniProt P28223 (whole entry, looked up): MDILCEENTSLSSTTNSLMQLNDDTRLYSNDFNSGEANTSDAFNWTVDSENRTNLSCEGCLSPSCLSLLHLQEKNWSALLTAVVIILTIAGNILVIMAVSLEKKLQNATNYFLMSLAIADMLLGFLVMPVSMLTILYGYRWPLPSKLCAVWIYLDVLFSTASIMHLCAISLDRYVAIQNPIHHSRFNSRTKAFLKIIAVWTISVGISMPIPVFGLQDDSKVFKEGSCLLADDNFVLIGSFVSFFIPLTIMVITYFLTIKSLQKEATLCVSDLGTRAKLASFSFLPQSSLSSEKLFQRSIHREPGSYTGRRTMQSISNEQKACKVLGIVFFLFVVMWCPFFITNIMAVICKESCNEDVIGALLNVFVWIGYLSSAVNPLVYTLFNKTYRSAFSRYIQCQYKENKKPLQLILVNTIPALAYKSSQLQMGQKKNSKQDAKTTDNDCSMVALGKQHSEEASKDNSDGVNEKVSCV
Sequence of UniProt P28335 (whole entry, looked up): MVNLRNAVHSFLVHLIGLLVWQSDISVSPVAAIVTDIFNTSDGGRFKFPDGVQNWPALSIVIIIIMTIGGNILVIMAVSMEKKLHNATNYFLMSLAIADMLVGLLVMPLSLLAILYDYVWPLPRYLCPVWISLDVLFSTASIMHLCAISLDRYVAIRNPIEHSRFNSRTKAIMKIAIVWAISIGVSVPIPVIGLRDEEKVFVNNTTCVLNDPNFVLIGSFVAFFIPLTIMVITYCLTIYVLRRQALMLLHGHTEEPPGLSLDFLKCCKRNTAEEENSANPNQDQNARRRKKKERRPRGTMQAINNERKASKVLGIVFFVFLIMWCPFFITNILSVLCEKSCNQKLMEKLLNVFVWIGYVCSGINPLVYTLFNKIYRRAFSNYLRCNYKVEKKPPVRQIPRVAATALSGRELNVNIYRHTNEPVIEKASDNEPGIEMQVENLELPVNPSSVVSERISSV

Series 1
Target: Eukaryotic initiation factor 4A-I (EIF4A1, Homo sapiens, UniProt P60842)
Sequence of UniProt P60842 (whole entry, looked up): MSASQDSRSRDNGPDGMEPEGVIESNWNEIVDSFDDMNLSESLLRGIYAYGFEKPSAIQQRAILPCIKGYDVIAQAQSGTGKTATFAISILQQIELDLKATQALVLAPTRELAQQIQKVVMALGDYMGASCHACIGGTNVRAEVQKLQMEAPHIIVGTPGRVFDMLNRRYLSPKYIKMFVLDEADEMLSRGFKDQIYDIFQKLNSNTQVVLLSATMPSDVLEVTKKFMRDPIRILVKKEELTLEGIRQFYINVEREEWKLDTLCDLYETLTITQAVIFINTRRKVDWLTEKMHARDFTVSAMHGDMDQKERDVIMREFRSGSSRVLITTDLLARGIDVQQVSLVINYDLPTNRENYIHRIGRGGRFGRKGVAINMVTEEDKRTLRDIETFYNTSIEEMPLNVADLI
Read-out: RNA clamping
Technique: fluorescence polarization
Tested at: concentration not given
Notes: mean of two replicates
Added: FAM-labelled poly r(AG)8 RNA
Measurement: fluorescence polarization change
COc1ccc([C@@]23Oc4cc(OC)cc(OC)c4[C@@]24NC(C)=N[C@@]4(O)[C@H](C(=O)N(C)OC)[C@H]3c2ccccc2)cc1: 117 mP
COC(=O)[C@@H]1[C@@H](c2ccccc2)[C@]2(c3ccc(OC)cc3)Oc3cc(OC)cc(OC)c3[C@@]23OC(c2ccc(Cl)nc2)=N[C@@]13O: 13.3 mP
COc1ccc([C@@]23Oc4cc(OC)cc(OC)c4[C@]2(O)c2nc(C(C)C)[nH]c(=O)c2[C@H]3c2ccccc2)cc1: 35.1 mP
COc1ccc([C@]23Oc4cc(OC)cc(OC)c4[C@](O)([C@H](c4ccccc4)[C@H]2C(=O)NCCCCNC(=O)c2ccccc2)[C@H]3O)cc1: -1.4 mP
COc1ccc([C@@]23Oc4cc(OC)cc(OC)c4[C@]2(O)c2nc(-c4ccncc4)[nH]c(=O)c2[C@H]3c2ccccc2)cc1: 23.9 mP
[2H]C([2H])([2H])C1=N[C@@]2(O)[C@H](C(=O)OC)[C@@H](c3ccccc3)[C@]3(c4ccc(OC)cc4)Oc4cc(OC)cc(OC)c4[C@]23N1: 71.9 mP
COc1ccc([C@]23Oc4cc(OC)cc(OC)c4[C@@]2(O)[C@@H](O)C[C@@H]3c2ccccc2)cc1: 1.8 mP
COC(=O)[C@H]1[C@@H](O)[C@@]2(O)c3c(OC)cc(OC)cc3O[C@@]2(c2ccc(Br)cc2)[C@@H]1c1ccccc1: 38.5 mP
COc1ccc([C@@]23Oc4cc(OC)cc(OC)c4[C@]2(O)c2nc(-c4ccc(Cl)cc4)[nH]c(=O)c2[C@H]3c2ccccc2)cc1: 6.7 mP
COc1ccc([C@@]23Oc4cc(OC)cc(OC)c4[C@]2(OC)c2nc(-c4ccccc4)nc(OC)c2[C@H]3c2ccccc2)cc1: -4.4 mP

Series 2
SMILES: O=C(O)[C@@H]1[C@@H](Cn2nnc3ccccc3c2=O)CC[C@H]1C(=O)c1ccc(OCCC2CCOCC2)cc1
Read-out: binding
Technique: radioligand binding
Tested at: 10 µM
Measurement: inhibition
CHRM1 (Homo sapiens, UniProt P11229): 6.4%
HTR2C (Homo sapiens, UniProt P28335): 21%
HTR2A (Homo sapiens, UniProt P28223): 18.4%
OPRD1 (Homo sapiens, UniProt P41143): 15.9%

Series 3
Target: Synaptic vesicular amine transporter (SLC18A2, Homo sapiens, UniProt Q05940)
Sequence of UniProt Q05940 (whole entry, looked up): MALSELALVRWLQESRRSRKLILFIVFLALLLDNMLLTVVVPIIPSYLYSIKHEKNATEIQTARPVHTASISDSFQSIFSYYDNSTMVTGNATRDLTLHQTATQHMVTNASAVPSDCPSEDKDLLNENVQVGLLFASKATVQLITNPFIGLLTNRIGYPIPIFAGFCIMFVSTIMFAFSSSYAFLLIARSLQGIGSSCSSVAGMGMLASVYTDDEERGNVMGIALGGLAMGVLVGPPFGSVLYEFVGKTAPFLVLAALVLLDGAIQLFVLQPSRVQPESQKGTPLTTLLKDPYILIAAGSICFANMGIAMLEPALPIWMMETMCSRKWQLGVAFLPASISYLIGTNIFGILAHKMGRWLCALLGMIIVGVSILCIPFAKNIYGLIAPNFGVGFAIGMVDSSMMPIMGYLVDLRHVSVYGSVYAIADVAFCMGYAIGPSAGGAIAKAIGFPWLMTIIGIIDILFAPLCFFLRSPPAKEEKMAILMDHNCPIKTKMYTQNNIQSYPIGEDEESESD
Action: inhibitor
Notes: literature data
Measurement: IC50
COc1ccc([C@@]23CCC(=O)C[C@@H]2N(C)CC3)cc1OC: > 10 µM
CN1CCC(C(=O)c2cccc(NC(=O)c3c(F)cc(F)cc3F)n2)CC1: > 10 µM
CCC1(c2ccccc2)C(=O)NC(=O)NC1=O: > 10 µM
C[C@@H](O)[C@@H]1NC(=O)[C@H](CCCCN)NC(=O)[C@@H](Cc2c[nH]c3ccccc23)NC(=O)[C@H](Cc2ccccc2)NC(=O)[C@@H](NC(=O)[C@H](N)Cc2ccccc2)CSSC[C@@H](C(=O)N[C@H](CO)[C@@H](C)O)NC1=O: > 10 µM
CN1CC[C@]23c4c5ccc(O)c4O[C@H]2[C@@H](O)C=C[C@H]3[C@H]1C5: > 10 µM
NCC1(CC(=O)O)CCCCC1: > 10 µM
CC(C)[N+](C)(CCC(C(N)=O)(c1ccccc1)c1ccccc1)C(C)C: > 10 µM
O=C1Nc2ccc(Cl)cc2C(c2ccccc2Cl)=NC1O (stereo not drawn): > 10 µM
CNC1(c2ccccc2Cl)CCCCC1=O (stereo not drawn): > 10 µM
CN(C)C(=O)C(CCN1CCC(O)(c2ccc(Cl)cc2)CC1)(c1ccccc1)c1ccccc1: 0.158 µM
COc1ccc2c3c1O[C@H]1C(=O)CC[C@H]4[C@@H](C2)N(C)CC[C@]314: > 10 µM

Further values, each from its own experiment
Target: DNA polymerase theta, ATPase domain (POLQ, Homo sapiens, UniProt O75417)
Sequence of UniProt O75417 (whole entry, unmodified, looked up): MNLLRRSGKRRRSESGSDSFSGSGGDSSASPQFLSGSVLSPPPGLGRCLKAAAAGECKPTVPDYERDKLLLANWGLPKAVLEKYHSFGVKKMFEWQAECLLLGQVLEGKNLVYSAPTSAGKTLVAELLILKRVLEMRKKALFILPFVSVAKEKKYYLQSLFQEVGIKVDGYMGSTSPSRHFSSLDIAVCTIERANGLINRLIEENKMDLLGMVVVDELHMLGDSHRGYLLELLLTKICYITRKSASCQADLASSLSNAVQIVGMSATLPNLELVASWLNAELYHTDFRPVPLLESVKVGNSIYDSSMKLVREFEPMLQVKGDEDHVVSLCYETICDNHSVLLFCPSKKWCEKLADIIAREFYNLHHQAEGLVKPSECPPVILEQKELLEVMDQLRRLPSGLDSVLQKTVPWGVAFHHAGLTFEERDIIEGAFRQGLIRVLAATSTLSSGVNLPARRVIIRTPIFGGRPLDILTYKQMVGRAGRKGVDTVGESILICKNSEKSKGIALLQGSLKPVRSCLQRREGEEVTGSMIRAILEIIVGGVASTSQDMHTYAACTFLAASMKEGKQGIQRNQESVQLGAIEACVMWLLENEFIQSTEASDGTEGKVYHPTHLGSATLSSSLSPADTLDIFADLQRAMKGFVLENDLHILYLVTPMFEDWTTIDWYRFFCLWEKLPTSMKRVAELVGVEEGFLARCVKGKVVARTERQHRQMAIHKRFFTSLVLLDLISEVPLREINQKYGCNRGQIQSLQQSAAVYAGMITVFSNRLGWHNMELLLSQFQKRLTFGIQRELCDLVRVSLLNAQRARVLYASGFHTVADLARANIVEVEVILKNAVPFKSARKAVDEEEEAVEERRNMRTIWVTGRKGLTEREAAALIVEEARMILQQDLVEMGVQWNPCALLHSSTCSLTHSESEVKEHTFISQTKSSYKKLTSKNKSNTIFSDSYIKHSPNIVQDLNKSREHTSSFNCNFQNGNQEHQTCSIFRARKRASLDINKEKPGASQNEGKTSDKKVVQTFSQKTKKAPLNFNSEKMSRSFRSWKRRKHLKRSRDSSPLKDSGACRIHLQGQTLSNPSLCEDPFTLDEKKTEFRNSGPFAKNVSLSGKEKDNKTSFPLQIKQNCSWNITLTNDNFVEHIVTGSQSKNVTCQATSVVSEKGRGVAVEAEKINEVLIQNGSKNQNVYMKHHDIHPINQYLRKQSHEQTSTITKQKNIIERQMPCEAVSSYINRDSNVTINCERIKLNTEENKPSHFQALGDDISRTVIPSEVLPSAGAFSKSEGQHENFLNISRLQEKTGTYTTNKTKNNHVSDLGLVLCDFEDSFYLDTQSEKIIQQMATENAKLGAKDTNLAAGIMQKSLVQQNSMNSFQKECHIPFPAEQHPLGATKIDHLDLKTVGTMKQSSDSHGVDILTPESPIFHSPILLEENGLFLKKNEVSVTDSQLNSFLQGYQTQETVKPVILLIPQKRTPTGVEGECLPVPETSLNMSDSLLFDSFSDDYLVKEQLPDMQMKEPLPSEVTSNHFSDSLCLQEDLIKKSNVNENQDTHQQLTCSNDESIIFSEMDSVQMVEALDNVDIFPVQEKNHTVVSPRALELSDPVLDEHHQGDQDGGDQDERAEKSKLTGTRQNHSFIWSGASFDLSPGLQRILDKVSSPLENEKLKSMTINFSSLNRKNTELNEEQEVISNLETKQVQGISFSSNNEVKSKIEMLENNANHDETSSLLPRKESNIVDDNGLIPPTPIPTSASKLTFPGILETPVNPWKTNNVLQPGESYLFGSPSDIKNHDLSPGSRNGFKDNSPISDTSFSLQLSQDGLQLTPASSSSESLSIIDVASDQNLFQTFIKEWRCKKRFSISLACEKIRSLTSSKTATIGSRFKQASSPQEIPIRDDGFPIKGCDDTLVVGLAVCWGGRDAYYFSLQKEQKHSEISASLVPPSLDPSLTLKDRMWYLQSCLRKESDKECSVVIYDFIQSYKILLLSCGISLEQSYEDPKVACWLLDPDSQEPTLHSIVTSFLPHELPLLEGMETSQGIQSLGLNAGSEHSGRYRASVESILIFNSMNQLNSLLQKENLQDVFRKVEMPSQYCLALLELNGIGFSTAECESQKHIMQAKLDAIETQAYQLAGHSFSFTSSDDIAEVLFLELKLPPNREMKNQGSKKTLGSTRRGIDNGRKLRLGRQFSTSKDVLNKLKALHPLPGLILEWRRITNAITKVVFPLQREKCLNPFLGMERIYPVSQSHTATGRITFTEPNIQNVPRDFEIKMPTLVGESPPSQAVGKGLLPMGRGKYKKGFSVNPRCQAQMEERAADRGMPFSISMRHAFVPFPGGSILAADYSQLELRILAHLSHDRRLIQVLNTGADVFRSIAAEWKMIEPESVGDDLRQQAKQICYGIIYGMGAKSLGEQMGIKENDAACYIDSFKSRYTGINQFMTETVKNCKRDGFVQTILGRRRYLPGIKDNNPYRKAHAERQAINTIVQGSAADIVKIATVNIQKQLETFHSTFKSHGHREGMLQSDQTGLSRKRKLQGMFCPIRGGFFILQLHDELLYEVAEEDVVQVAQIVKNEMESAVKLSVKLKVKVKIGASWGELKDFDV
Read-out: enzyme activity
Action: inhibitor
Tested at: 77 µM
Relative to: untreated
C#C[C@]1(O)C=C[C@H]2[C@@H]3CCC4=CC(=O)CC[C@@H]4[C@H]3CC[C@@]21CC
remaining activity: 99%

C[C@]12CCC(=O)C=C1C=C[C@@H]1[C@@H]2CC[C@@]2(C)[C@H]1CC[C@@]2(O)CCC(=O)O
remaining activity: 101%
